Measured values pooled from the literature.
Each numbered part is a random draw from the data of one study; scales do not carry over between parts.
Chain of UniProt P21728 (whole entry, looked up): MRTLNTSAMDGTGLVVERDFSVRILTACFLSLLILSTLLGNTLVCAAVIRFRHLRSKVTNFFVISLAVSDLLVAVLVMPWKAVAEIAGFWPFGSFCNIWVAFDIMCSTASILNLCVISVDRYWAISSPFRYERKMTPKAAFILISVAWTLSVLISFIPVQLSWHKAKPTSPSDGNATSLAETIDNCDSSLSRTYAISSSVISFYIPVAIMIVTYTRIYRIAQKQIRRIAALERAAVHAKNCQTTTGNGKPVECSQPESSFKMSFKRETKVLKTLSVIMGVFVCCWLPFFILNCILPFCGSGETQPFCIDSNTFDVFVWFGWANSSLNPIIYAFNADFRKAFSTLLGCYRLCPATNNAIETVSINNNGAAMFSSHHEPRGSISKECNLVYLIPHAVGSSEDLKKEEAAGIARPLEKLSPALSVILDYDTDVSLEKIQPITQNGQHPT
Chain of UniProt P35968 (whole entry, looked up): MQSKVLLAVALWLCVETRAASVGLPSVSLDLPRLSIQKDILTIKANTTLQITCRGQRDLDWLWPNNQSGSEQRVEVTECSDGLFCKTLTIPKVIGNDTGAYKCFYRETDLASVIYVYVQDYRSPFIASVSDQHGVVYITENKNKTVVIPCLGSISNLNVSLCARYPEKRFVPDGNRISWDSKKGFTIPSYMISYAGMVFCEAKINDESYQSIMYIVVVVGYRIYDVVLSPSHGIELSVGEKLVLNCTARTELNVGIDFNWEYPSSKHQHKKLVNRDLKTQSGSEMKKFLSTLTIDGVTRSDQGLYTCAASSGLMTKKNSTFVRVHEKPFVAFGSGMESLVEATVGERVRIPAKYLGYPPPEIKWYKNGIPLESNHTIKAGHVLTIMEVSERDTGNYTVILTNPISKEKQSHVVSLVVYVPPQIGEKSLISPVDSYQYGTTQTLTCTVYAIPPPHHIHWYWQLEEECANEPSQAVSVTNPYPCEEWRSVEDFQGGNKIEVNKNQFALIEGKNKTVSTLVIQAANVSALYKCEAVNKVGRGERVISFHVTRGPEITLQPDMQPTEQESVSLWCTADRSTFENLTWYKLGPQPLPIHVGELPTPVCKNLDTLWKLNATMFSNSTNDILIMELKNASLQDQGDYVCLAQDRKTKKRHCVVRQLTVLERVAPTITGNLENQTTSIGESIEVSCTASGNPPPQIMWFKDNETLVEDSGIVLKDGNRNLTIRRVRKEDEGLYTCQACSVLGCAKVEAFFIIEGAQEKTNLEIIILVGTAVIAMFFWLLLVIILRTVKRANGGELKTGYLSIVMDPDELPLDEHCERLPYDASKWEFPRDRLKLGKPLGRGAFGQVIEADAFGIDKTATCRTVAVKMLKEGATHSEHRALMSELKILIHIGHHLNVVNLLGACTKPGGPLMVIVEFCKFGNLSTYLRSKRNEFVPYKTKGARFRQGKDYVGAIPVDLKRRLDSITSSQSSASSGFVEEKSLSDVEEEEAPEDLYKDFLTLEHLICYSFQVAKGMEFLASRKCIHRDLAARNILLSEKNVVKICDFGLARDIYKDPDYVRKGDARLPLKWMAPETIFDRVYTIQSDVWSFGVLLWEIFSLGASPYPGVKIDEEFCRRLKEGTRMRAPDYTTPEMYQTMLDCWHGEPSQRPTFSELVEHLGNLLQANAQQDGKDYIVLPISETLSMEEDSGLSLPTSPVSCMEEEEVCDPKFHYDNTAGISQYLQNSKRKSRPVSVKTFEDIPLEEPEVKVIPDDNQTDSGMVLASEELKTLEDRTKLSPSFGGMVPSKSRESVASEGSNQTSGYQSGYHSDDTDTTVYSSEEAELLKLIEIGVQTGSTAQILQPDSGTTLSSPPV
Chain of UniProt Q96SW2 (whole entry, looked up): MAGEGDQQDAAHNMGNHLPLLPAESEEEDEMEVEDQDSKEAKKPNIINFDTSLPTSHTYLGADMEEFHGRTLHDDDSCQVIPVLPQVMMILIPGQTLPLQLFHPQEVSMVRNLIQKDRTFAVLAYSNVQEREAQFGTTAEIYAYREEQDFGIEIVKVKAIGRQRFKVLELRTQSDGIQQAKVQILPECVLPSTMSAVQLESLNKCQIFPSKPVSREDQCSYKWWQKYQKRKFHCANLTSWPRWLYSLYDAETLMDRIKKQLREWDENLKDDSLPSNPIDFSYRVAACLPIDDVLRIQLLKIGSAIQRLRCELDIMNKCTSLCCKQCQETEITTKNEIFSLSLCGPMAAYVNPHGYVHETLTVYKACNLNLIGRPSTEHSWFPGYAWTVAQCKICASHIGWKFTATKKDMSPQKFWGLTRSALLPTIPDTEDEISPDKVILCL
Chain of UniProt Q9Y2U5 (whole entry, looked up): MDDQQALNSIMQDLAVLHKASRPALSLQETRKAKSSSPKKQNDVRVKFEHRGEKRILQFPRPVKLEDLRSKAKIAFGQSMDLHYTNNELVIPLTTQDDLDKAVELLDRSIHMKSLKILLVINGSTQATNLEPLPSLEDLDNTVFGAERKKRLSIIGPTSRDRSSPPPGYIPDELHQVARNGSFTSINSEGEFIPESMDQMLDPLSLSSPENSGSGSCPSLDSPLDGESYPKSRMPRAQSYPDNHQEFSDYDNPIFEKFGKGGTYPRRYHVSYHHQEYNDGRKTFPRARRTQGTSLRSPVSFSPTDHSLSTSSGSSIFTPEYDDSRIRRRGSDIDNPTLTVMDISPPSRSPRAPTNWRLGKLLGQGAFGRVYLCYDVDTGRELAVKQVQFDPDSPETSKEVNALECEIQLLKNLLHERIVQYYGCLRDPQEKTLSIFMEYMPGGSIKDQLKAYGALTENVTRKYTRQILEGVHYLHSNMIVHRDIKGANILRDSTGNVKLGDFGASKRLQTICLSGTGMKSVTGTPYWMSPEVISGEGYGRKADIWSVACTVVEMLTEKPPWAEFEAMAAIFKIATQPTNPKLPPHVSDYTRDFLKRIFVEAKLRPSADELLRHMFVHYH
Chain of UniProt Q9UKS7 (whole entry, looked up): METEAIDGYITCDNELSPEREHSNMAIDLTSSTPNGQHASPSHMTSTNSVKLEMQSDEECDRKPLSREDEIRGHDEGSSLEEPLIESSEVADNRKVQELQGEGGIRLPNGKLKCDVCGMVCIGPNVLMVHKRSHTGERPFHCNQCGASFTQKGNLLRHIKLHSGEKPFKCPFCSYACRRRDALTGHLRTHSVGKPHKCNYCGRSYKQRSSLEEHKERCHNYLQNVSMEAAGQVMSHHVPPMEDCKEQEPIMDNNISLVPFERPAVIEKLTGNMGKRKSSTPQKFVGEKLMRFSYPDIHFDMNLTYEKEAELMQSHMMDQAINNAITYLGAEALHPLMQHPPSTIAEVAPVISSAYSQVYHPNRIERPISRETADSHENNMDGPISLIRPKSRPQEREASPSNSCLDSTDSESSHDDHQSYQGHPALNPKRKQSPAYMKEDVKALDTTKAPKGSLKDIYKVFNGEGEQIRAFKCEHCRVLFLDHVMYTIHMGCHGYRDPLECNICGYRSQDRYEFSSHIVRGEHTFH

Block 1
Target: UDP-N-acetylglucosamine--peptide N-acetylglucosaminyltransferase 110 kDa subunit (OGT, Homo sapiens, UniProt O15294)
Chain of UniProt O15294 (whole entry, looked up): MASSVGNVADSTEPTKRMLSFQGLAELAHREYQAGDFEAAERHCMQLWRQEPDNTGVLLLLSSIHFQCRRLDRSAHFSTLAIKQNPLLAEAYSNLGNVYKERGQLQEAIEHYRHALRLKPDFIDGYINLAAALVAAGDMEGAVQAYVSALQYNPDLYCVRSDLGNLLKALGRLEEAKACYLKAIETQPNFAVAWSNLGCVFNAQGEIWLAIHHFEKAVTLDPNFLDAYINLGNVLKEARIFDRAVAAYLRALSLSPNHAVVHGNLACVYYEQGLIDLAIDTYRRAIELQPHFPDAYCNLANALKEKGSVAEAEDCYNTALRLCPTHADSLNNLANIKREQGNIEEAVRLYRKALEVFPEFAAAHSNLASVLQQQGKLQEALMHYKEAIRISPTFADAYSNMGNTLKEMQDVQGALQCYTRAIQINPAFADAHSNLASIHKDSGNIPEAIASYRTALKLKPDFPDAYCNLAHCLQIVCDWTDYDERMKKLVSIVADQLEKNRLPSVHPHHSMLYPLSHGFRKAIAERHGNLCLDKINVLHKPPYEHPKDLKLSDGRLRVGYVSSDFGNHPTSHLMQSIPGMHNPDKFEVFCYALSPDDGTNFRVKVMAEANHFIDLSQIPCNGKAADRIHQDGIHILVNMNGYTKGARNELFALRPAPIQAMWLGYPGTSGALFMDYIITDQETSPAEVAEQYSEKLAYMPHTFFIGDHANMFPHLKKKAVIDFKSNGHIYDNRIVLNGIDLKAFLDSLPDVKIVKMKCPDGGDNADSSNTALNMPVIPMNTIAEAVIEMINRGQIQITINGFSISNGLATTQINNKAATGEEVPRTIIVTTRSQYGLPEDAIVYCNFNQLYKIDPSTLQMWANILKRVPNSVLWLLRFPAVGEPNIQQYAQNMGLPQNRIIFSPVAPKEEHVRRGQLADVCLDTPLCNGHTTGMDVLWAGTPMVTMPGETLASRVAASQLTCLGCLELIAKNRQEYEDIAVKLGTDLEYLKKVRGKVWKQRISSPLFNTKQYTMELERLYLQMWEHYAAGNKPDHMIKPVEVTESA
Observed: binding
Method: phage display NGS
Molecule type: peptide
Concentration: concentration not given
Notes: panning round 2
Baseline: input library
Molecule | enrichment fold change
DFLYMPKYQMVFDFT | 94.9
ANTLDYTPFYTIEY | 4.39
HADHKSPLFNHNTQH | 4.54
QPQHQSNQHVHHRYF | 3.22
NIWMPVYQIRYSYNT | 17.5
ADFQLTYKPLYQIVA | 7.62
HPSHRWHYNETHTD | 7.18
GMSPWHFHSHQAIMV | 5.82

Block 2
Compound: COC(=O)c1cc(N(C)C(=O)c2ccn3ncc(-c4ccc(C(=O)O)cc4)c3c2)ccc1Cl
target | observed | action | IC50 [µM]
D(1A) dopamine receptor (DRD1, Homo sapiens, UniProt P21728) | cell-free assay | – | > 30
Tyrosine-protein kinase JAK1 (JAK1, Homo sapiens, UniProt P23458) | enzyme activity | inhibitor | > 30
Myotonin-protein kinase (DMPK, Homo sapiens, UniProt Q09013) | enzyme activity | inhibitor | > 30
Fibroblast growth factor receptor 2 (FGFR2, Homo sapiens, UniProt P21802) | enzyme activity | inhibitor | > 30
Prothrombin (F2, Homo sapiens, UniProt P00734) | cell-free assay | – | > 30
MAP kinase-interacting serine/threonine-protein kinase 2 (MKNK2, Homo sapiens, UniProt Q9HBH9) | enzyme activity | inhibitor | 3.43
Mitogen-activated protein kinase kinase kinase 2 (MAP3K2, Homo sapiens, UniProt Q9Y2U5) | enzyme activity | inhibitor | > 30
Sodium-dependent serotonin transporter (SLC6A4, Homo sapiens, UniProt P31645) | cell-free assay | – | > 30
Vascular endothelial growth factor receptor 2 (KDR, Homo sapiens, UniProt P35968) | enzyme activity | inhibitor | > 30

Other studies, line by line
CAMK2A: Calcium/calmodulin-dependent protein kinase type II subunit alpha (CAMK2A, Homo sapiens, UniProt Q9UQM7)
Chain of UniProt Q9UQM7 (whole entry, looked up): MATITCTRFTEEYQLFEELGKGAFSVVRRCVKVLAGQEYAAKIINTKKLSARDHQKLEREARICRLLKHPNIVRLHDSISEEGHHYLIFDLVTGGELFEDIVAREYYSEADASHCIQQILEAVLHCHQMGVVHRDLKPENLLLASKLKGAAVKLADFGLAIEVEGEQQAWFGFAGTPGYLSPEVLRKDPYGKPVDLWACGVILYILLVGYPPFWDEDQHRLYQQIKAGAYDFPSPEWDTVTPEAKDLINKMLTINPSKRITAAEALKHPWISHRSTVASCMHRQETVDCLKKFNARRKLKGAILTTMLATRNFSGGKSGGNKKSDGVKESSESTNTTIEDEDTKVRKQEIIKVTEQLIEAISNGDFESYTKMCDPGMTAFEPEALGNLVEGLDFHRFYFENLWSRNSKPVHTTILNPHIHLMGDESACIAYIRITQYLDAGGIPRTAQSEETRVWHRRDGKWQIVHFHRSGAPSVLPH
SMILES | target or system | assay | test system | conditions | how to read | endpoint | result
CNCC[C@H](Oc1cccc2ccccc12)c1cccs1 | Plasmodium berghei | liver stage infection | Huh-7 | 10 µM, 24 h, GFP-expressing sporozoites | – | remaining activity | 51.9%
Cc1ccc(/N=C/N(C)/C=N/c2ccc(C)cc2C)c(C)c1 | A-375 | – | – | 100 µM, 36 h | – | viability | 33.4%
O=C1CCC(N2Cc3c(ccc4c3OCC43CCCN(Cc4ccccc4)CC3)C2=O)C(=O)N1 (stereo not drawn) | CRBN/Zinc finger protein Helios (Homo sapiens, UniProt Q96SW2+Q9UKS7) | degrader, HiBiT | HEK293 | 13.72 nM | – | protein remaining | 95.5%
COc1ccccc1OC | CAMK2A | enzyme activity, inhibitor | – | 10 µM | – | inhibition | -32%
COc1ccc2c(c1)/C(=C/c1cnc[nH]1)C(=O)N2 | Tyrosine-protein kinase JAK2 (JAK2, Homo sapiens, UniProt O60674) | enzyme activity, inhibitor | – | 0.5 µM | baseline: control | remaining activity | 88.9%
C[N+]12CCC(CC1)C(OC(=O)C(O)(c1ccccc1)c1ccccc1)C2 (stereo not drawn) | A-375 | – | – | 100 µM, 36 h | – | viability | 117%
CC1=C2C(=CO[C@H](C)[C@H]2C)C(O)=C(C(=O)O)C1=O | CAMK2A | enzyme activity, inhibitor | – | 10 µM | – | inhibition | -69%

Some of these lines once more (block 2):
target | observed | action | IC50 [µM]
Fibroblast growth factor receptor 2 (FGFR2, Homo sapiens, UniProt P21802) | enzyme activity | inhibitor | > 30
